{"data": "Experimental data gathered from unrelated publications", "note": "Numbered parts are unrelated; each lists some results of a single study.", "chain of UniProt O95747 (whole entry, looked up)": "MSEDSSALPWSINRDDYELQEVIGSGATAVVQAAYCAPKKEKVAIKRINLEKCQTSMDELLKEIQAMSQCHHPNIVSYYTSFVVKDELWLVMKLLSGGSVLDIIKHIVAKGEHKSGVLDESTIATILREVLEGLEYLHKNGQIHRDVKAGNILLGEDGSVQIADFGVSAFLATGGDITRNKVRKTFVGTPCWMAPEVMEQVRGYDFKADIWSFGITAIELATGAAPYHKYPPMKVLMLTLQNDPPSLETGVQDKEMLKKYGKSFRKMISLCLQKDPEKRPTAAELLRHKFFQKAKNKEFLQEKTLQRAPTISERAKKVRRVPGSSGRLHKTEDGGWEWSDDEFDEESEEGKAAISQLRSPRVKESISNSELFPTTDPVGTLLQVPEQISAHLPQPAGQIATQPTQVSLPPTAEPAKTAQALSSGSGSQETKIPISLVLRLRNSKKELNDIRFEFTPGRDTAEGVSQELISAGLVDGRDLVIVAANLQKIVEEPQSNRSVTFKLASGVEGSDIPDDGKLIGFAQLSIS", "chain of UniProt P14616 (whole entry, looked up)": "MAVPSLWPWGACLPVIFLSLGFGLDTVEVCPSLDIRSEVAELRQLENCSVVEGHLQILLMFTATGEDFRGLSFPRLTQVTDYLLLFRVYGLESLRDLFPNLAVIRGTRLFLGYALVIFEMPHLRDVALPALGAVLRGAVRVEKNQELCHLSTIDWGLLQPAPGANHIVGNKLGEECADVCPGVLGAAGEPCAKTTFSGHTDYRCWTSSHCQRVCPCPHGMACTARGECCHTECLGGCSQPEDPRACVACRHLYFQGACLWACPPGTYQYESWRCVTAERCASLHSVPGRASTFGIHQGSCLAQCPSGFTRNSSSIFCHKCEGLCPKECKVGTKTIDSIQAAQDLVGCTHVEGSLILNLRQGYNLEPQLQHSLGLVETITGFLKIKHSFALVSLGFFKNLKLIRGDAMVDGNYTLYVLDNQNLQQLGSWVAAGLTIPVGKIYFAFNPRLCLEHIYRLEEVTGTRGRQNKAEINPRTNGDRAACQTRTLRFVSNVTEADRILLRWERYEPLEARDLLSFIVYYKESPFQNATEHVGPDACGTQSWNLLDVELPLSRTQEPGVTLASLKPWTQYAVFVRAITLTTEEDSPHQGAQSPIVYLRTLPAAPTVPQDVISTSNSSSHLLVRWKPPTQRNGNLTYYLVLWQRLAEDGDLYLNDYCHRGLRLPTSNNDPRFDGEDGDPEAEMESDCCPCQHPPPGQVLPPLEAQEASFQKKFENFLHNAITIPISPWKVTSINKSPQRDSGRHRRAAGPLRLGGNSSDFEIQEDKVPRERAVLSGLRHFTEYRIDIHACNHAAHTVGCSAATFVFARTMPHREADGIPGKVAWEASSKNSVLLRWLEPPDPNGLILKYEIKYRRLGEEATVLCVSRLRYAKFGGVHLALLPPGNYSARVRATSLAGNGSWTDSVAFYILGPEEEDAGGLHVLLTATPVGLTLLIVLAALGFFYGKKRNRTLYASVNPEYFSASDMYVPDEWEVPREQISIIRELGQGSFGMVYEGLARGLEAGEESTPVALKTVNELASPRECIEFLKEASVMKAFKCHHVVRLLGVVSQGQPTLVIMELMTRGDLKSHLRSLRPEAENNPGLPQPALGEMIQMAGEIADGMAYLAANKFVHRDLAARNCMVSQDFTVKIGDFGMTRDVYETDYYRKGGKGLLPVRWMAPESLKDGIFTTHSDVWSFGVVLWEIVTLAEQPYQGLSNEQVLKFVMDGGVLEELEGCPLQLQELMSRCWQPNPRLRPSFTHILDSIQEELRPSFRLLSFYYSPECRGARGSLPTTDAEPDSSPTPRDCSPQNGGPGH", "chain of UniProt P68400 (whole entry, looked up)": "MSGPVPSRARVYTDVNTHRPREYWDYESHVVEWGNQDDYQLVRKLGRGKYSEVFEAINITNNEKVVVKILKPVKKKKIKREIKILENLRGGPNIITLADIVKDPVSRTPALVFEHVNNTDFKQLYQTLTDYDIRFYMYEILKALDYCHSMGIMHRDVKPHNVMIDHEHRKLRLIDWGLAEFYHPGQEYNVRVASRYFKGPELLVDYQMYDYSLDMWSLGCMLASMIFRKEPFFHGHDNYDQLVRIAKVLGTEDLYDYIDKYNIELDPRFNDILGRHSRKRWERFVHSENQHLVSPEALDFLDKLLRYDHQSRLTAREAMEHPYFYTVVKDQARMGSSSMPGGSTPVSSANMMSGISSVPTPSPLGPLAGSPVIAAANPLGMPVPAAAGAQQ", "chain of UniProt Q9BXA7 (whole entry, looked up)": "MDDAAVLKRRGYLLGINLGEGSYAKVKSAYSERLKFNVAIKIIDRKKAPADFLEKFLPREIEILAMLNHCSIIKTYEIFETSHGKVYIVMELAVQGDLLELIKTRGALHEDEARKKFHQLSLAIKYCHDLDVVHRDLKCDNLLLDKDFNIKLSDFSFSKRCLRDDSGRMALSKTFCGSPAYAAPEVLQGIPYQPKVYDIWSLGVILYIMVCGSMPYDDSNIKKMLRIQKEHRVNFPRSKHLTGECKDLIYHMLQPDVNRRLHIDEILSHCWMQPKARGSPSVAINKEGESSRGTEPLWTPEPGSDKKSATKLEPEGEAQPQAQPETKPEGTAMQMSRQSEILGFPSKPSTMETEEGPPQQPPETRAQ", "chain of UniProt P0C264 (whole entry, looked up)": "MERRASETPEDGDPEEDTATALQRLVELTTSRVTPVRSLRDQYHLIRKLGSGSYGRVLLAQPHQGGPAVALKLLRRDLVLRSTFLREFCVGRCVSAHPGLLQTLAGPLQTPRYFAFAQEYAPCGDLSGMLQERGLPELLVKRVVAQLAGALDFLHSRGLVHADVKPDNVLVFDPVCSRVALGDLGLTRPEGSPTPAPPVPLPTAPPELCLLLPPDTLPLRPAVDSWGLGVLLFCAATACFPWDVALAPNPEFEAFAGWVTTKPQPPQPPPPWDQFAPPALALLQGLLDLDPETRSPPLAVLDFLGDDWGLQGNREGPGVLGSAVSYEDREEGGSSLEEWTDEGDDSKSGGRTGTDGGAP", "chain of UniProt P05771 (whole entry, looked up)": "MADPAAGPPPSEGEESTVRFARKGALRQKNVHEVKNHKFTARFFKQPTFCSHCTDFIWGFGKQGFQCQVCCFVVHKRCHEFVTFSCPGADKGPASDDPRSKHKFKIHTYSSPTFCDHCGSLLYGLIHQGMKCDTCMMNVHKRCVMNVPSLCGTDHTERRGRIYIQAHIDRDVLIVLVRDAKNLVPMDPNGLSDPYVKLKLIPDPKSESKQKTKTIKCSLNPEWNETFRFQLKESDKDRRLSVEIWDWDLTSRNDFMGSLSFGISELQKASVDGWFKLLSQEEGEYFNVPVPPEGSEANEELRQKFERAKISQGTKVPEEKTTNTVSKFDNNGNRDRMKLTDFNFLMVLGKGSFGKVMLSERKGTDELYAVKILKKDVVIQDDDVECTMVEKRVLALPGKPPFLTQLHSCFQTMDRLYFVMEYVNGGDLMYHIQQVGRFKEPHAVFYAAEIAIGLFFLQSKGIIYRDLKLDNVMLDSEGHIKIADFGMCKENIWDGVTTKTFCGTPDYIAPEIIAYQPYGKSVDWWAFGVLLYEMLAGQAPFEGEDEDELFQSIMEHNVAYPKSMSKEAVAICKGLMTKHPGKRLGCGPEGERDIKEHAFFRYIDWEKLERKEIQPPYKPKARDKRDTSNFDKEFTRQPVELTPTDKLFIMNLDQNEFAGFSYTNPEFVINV", "chain of UniProt Q96RR4 (whole entry, looked up)": "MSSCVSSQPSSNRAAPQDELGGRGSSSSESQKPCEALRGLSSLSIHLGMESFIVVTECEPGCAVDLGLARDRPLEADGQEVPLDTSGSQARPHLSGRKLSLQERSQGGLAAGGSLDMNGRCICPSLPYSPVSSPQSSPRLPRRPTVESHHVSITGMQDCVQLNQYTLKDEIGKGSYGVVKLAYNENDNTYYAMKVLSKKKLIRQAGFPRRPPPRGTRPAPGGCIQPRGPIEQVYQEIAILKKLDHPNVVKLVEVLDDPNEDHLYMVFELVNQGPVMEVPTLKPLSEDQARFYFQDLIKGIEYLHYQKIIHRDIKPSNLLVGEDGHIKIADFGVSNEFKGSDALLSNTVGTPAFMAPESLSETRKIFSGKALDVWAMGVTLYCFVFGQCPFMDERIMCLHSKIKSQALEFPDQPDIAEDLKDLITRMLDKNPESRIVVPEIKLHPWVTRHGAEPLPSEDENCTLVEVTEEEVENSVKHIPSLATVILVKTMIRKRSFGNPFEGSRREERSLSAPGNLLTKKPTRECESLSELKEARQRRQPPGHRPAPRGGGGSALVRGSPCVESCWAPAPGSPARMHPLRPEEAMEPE", "chain of UniProt Q13976 (whole entry, looked up)": "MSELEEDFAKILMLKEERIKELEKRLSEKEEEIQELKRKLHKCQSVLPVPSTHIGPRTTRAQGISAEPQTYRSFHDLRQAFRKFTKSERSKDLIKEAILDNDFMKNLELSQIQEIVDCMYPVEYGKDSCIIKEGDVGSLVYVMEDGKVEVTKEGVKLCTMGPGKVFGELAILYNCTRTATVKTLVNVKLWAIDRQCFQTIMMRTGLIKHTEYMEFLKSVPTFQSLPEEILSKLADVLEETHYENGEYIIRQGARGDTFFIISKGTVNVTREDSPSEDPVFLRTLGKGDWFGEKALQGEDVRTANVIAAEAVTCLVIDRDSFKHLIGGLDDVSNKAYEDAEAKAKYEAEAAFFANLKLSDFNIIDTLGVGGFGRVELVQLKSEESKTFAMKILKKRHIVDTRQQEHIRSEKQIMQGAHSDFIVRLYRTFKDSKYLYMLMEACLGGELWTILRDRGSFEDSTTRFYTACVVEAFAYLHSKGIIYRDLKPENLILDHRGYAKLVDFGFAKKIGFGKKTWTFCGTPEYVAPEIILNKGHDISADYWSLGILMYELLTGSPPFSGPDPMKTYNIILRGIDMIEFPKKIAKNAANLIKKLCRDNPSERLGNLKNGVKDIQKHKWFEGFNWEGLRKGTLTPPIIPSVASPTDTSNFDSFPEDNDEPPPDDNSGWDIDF"}
{"data": "Set 1", "target": "Prothrombin, mature alpha-thrombin (F2, Homo sapiens, UniProt P00734)", "method": "aptamer microarray, sandwich", "form": "DNA with 2'F-ANA", "medium": "in vitro", "tested at": "200 nM", "notes": "whole 15-mer aptamer, many near background", "added": "Cy3 exosite-II aptamer, 400 nM", "reading": "higher = stronger binding", "strand": "GGTTGGTGTGGTTGG"}
{"Modification": "2'F-ANA at 5 10 14 15", "mean fluorescence intensity": "46.7 a.u."}
{"Modification": "2'F-ANA at 1 4 5 7 8 9 10 12 13", "mean fluorescence intensity": "45.5 a.u."}
{"Modification": "2'F-ANA at 1 2 4 9 12 14", "mean fluorescence intensity": "53.9 a.u."}
{"Modification": "2'F-ANA at 1 3 5 9 10 12", "mean fluorescence intensity": "49.1 a.u."}
{"Modification": "2'F-ANA at 3 5 6 8 9 12 14 15", "mean fluorescence intensity": "63.1 a.u."}
{"Modification": "2'F-ANA at 1 2 3 4 5 7 10", "mean fluorescence intensity": "46.5 a.u."}
{"Modification": "2'F-ANA at 2 7 9 10 11 12 13 15", "mean fluorescence intensity": "131 a.u."}
{"Modification": "2'F-ANA at 4 7 8 9 11 14", "mean fluorescence intensity": "93.8 a.u."}
{"data": "Set 2", "Structure (SMILES)": "Nc1c(C(=O)NCc2ccc(C(=O)NCCCC3CCCCC3)cc2)cnn1-c1ccccc1", "method": "competition with immobilised ligand"}
{"target": "SLK (Homo sapiens, UniProt Q9H2G2)", "read-out": "cell-free assay", "tested at": "0.1 µM", "remaining binding [%]": 80}
{"target": "OXSR1 (Homo sapiens, UniProt O95747)", "read-out": "cell-free assay", "tested at": "0.1 µM", "remaining binding [%]": 100}
{"target": "TSSK1B (Homo sapiens, UniProt Q9BXA7)", "read-out": "cell-free assay", "tested at": "0.1 µM", "remaining binding [%]": 81}
{"target": "MAP4K4 (Homo sapiens, UniProt O95819)", "read-out": "cell-free assay", "tested at": "0.1 µM", "remaining binding [%]": 87}
{"target": "TNK2 (Homo sapiens, UniProt Q07912)", "read-out": "cell-free assay", "tested at": "0.1 µM", "remaining binding [%]": 89}
{"target": "EGFR (Homo sapiens, UniProt P00533)", "read-out": "cell-free assay", "tested at": "0.1 µM", "remaining binding [%]": 99}
{"target": "SBK3 (Homo sapiens, UniProt P0C264)", "read-out": "cell-free assay", "tested at": "0.1 µM", "remaining binding [%]": 87}
{"target": "CDKL5 (Homo sapiens, UniProt O76039)", "read-out": "cell-free assay", "tested at": "0.1 µM", "remaining binding [%]": 100}
{"target": "GRK7 (Homo sapiens, UniProt Q8WTQ7)", "read-out": "cell-free assay", "tested at": "0.1 µM", "remaining binding [%]": 100}
{"target": "ERBB3 (Homo sapiens, UniProt P21860)", "read-out": "binding", "tested at": "1 µM", "remaining binding [%]": 44}
{"target": "eIF-2-alpha kinase GCN2, C-terminal kinase domain (EIF2AK4, Homo sapiens, UniProt Q9P2K8, S808G)", "read-out": "cell-free assay", "tested at": "0.1 µM", "remaining binding [%]": 100}
{"target": "Tyrosine-protein kinase ABL1, phosphorylated (ABL1, Homo sapiens, UniProt P00519, H396P)", "read-out": "cell-free assay", "tested at": "0.1 µM", "remaining binding [%]": 100}
{"target": "MET (Homo sapiens, UniProt P08581)", "read-out": "cell-free assay", "tested at": "0.1 µM", "remaining binding [%]": 95}
{"target": "CSNK2A1 (Homo sapiens, UniProt P68400)", "read-out": "cell-free assay", "tested at": "0.1 µM", "remaining binding [%]": 70}
{"target": "INSRR (Homo sapiens, UniProt P14616)", "read-out": "cell-free assay", "tested at": "0.1 µM", "remaining binding [%]": 100}
{"target": "SIK2 (Homo sapiens, UniProt Q9H0K1)", "read-out": "cell-free assay", "tested at": "0.1 µM", "remaining binding [%]": 100}
{"target": "NEK5 (Homo sapiens, UniProt Q6P3R8)", "read-out": "cell-free assay", "tested at": "0.1 µM", "remaining binding [%]": 99}
{"target": "PIK3CA (Homo sapiens, UniProt P42336, E542K)", "read-out": "cell-free assay", "tested at": "0.1 µM", "remaining binding [%]": 100}
{"target": "ALK (Homo sapiens, UniProt Q9UM73, L1196M)", "read-out": "cell-free assay", "tested at": "0.1 µM", "remaining binding [%]": 100}
{"data": "Set 3", "Compound": "Clc1ccc(Nc2nnc(Cc3ccncc3)c3ccccc23)cc1", "read-out": "enzyme activity", "mode": "inhibitor", "tested at": "0.5 µM", "baseline": "control"}
{"target": "TGFBR1 (Homo sapiens, UniProt P36897)", "remaining activity [%]": 96.8}
{"target": "DAPK1 (Homo sapiens, UniProt P53355)", "remaining activity [%]": 105}
{"target": "Cyclin-dependent kinase 4, with cyclin D1 (CDK4, Homo sapiens, UniProt P11802)", "remaining activity [%]": 96.6}
{"target": "OXSR1 (Homo sapiens, UniProt O95747)", "remaining activity [%]": 101}
{"target": "STK10 (Homo sapiens, UniProt O94804)", "remaining activity [%]": 96.3}
{"target": "Cyclin-dependent kinase 5, with p25 (CDK5, Homo sapiens, UniProt Q00535)", "remaining activity [%]": 91.3}
{"target": "CAMK2D (Homo sapiens, UniProt Q13557)", "remaining activity [%]": 81.1}
{"target": "cGMP-dependent protein kinase 1, isoform beta (PRKG1, Homo sapiens, UniProt Q13976)", "remaining activity [%]": 94.1}
{"target": "PRKACA (Homo sapiens, UniProt P17612)", "remaining activity [%]": 98.1}
{"target": "CAMKK2 (Homo sapiens, UniProt Q96RR4)", "remaining activity [%]": 100}
{"target": "TGFBR2 (Homo sapiens, UniProt P37173)", "remaining activity [%]": 100}
{"target": "Tyrosine-protein kinase Lyn, isoform B (LYN, Homo sapiens, UniProt P07948)", "remaining activity [%]": 110}
{"target": "DAPK2 (Homo sapiens, UniProt Q9UIK4)", "remaining activity [%]": 91.7}
{"target": "CHEK2 (Homo sapiens, UniProt O96017)", "remaining activity [%]": 98.5}
{"target": "STK39 (Homo sapiens, UniProt Q9UEW8)", "remaining activity [%]": 92.6}
{"target": "GRK3 (Homo sapiens, UniProt P35626)", "remaining activity [%]": 92.9}
{"target": "Protein kinase C beta type, isoform beta-I (PRKCB, Homo sapiens, UniProt P05771)", "remaining activity [%]": 83.5}
{"data": "Set 4", "target": "Sal-like protein 4, full length isoform B (SALL4, Homo sapiens, UniProt Q9UJQ4-2, residues 1-616)", "method": "universal PBM", "form": "double-stranded DNA, one strand shown", "medium": "in vitro", "tested at": "not given", "notes": "8-mer, flanks averaged, mean of replicates", "reading": "higher = stronger binding"}
{"Strand": "CAGTTAGA", "E-score": -0.0573}
{"Strand": "AGCATAGC", "E-score": -0.00432}
{"Strand": "CACTGGAG", "E-score": -0.226}
{"Strand": "ATACCTAA", "E-score": 0.244}
{"Strand": "AAGGCTCG", "E-score": -0.232}
{"Strand": "AAGAAGAT", "E-score": 0.119}
{"Strand": "CCCTCTCG", "E-score": -0.236}
{"Strand": "GACCCATC", "E-score": -0.145}
{"note": "Repeated from above (set 2):"}
{"target": "SBK3 (Homo sapiens, UniProt P0C264)", "read-out": "cell-free assay", "tested at": "0.1 µM", "remaining binding [%]": 87}
{"target": "CDKL5 (Homo sapiens, UniProt O76039)", "read-out": "cell-free assay", "tested at": "0.1 µM", "remaining binding [%]": 100}
{"target": "GRK7 (Homo sapiens, UniProt Q8WTQ7)", "read-out": "cell-free assay", "tested at": "0.1 µM", "remaining binding [%]": 100}
{"target": "ERBB3 (Homo sapiens, UniProt P21860)", "read-out": "binding", "tested at": "1 µM", "remaining binding [%]": 44}
